Experimental data gathered from unrelated publications.
Each numbered part is a random draw from the data of one study; scales do not carry over between parts. Positions count from the first letter of the parent shown.

Series 1 — target: CCNE1, cyclin fold, Cln2 fusion (human); method: yeast growth competition, sequencing; medium: yeast; setting: strong parent motif; relative to: not given; reading: higher = stronger binding
Starting sequence: CDKN1B docking peptide (human); PSACRNLFGPVDH
Under “normalised enrichment score”, `PSACRNLFGKVDH [P10K]` is recorded as 2.88.
`PSACRNQFGPVDH [L7Q]` — result for “normalised enrichment score”: 0.182.
`PSACANLFGPVDH [R5A]`: “normalised enrichment score” 0.136.
For `PSACRNLQGPVDH [F8Q]`, “normalised enrichment score” read 0.0846.
For `PSACRNLFGCVDH [P10C]`, “normalised enrichment score” read 3.06.
For `PSHCRNLFGPVDH [A3H]`, “normalised enrichment score” read 2.97.
`PSACENLFGPVDH [R5E]`: “normalised enrichment score” 0.769.
`PSACRNLFGPKDH [V11K]` — result for “normalised enrichment score”: 2.66.
`PSACRNLFGPGDH [V11G]`: “normalised enrichment score” 2.7.
Under “normalised enrichment score”, `PSACRNMFGPVDH [L7M]` is recorded as 0.431.
`PHACRNLFGPVDH [S2H]` — result for “normalised enrichment score”: 2.53.
Under “normalised enrichment score”, `PSACRNLFGPVSH [D12S]` is recorded as 2.91.
For `PSFCRNLFGPVDH [A3F]`, “normalised enrichment score” read 3.55.
Under “normalised enrichment score”, `GSACRNLFGPVDH [P1G]` is recorded as 3.13.
`PAACRNLFGPVDH [S2A]` — result for “normalised enrichment score”: 2.72.
`PSAMRNLFGPVDH [C4M]`: “normalised enrichment score” 0.703.
`PSAIRNLFGPVDH [C4I]`: “normalised enrichment score” 1.51.
`PSACANAFGPVDH [R5A L7A]` — result for “normalised enrichment score”: -0.193.
`PSACRNLFGQVDH [P10Q]` — result for “normalised enrichment score”: 2.96.
Under “normalised enrichment score”, `PSACRNLKGPVDH [F8K]` is recorded as 0.188.
`ASACRNLFGPVDH [P1A]` — result for “normalised enrichment score”: 3.76.
`PSACRNLFQPVDH [G9Q]` — result for “normalised enrichment score”: 1.5.
For `PSAARNLFGPVDH [C4A]`, “normalised enrichment score” read 1.47.
`PLACRNLFGPVDH [S2L]` — result for “normalised enrichment score”: 1.63.
Under “normalised enrichment score”, `PSACRKLFGPVDH [N6K]` is recorded as 3.95.

Series 2 — method: RNA Bind-n-Seq; form: RNA; medium: in vitro; tested at: 365 nM; relative to: no-protein control; reading: higher = stronger binding
Target: RNA binding protein fox-1 homolog 2, RRM domain, GST-SBP tag (RBFOX2, Homo sapiens, UniProt O43251-10, residues 100-194)
Setting: natural RNA segment, single round, ends assumed
Residues (chain): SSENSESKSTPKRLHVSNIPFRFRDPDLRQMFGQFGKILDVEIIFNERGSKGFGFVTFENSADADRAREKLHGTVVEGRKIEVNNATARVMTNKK
For `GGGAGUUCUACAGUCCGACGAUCUCCCAGCUUCAGUGCUCUUUUCCUUUUUGCCUGAAAUGUUUAUGCUUCUCUGCAGCCAGUCCUCUAACAAAUCUCAAGAACAAAGGUAAGACACUUGGUUUUUGUUUCCAUGGAAUUCUCGGGUGCCAA`, “RBNS enrichment (R)” read 1.29.
`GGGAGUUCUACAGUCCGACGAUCUCUACCUAGUCUGCUGGGCUGAUAGUGAAGCACCGAGGUUGAUGGACUUACAUUCCCAGUGUGCCUGCCAGCUGCAAUGAGGACUCUAAACUCAAGUAGAACAAAUCCCUUGGAAUUCUCGGGUGCCAA`: “RBNS enrichment (R)” 0.609.
`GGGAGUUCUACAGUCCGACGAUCUACUAUAUCAUCUGAGGUUUUAAGUGGUAACUGGUUCUAUACCAUGUAUGUAUCAUAUGUUUGUUCAUCAAAGCUUUUUAAUCCAAAUAAAAACAACAGUUUGCAAAGUGUGGAAUUCUCGGGUGCCAA` — result for “RBNS enrichment (R)”: 0.528.
`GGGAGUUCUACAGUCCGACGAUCCCAUGCGCCCGCCCUGCCCCAACUGUGUGCUGGUCCUGCUGUGGCCGAGGGGACCGGGUGUGUUUGGCUCUUUAUGCCCCUCCCGCUGUGGUCCUGGAACUCUUCACCAGUGGAAUUCUCGGGUGCCAA` — result for “RBNS enrichment (R)”: 0.286.
`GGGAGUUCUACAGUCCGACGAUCUGCUUUUUUAAAAUAUAUAUAUAUUUAUAAGAGAUCCUUUCCCAUUUAUUCUGGGAAGAUGUUUUUCAAACUCAGAGACAAGGACUUUGGUUUUUGUAAGACAAACGAUGUGGAAUUCUCGGGUGCCAA` — result for “RBNS enrichment (R)”: 0.737.
Under “RBNS enrichment (R)”, `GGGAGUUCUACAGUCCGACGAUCGGGUGUCCAGACUCAGAAGGCUUGAUCUGGGUUCCCUGUAAAGAGAGAGUGAAUUUCAGUAUACAGACAGCCUGCUCUACCCACCCCUUCCUUACCACGGCCCACGUAAAUGGAAUUCUCGGGUGCCAA` is recorded as 0.772.
Under “RBNS enrichment (R)”, `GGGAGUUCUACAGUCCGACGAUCUGACUGGUUCACAAAUAUAUCCACAAAAUGUUUGCAUAUGGAAUAAUAGAAGCAUAUAAAACAUUGUAUGUAAAUUGCAUCUUCAUACUAGCAAACAAGUUAACAAAUGAUGGAAUUCUCGGGUGCCAA` is recorded as 0.438.
Under “RBNS enrichment (R)”, `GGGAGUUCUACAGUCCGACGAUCCCAGAAAGCCUGACAUGAAGGAAGAGGAGACUCUUCGAGGAGCACUUUGGGUCCGGAGGGCGAGACUCCGGCAGACGCAUUCCCGGGCAGGUGACCAAGCACGGUCCCUCUGGAAUUCUCGGGUGCCAA` is recorded as 0.361.
`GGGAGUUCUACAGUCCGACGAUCAUUUCAAGAAGAUGAUUGGAGUAUAAGGAUUAUCAUUUUGUUAGGUAGAGUUUCUUUUUUUCUUUUUGUAAUCAUGAGUUCCCUUGACUCCCCUCUUGAUUUUCUAUCUUUGGAAUUCUCGGGUGCCAA`: “RBNS enrichment (R)” 0.698.
Under “RBNS enrichment (R)”, `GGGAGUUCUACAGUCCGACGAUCUAUUUGAAAACAGAAAUUGGUACCUUGCACACAUCAUCUGUAAACUGUUCAGUUUAAAAUACUGUAGAUAAUUAACCAAGGUAGAAUGACCUUGUAAUGUAACUGCUCUUUGGAAUUCUCGGGUGCCAA` is recorded as 1.32.
`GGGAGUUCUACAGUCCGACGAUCAAAAGAACAGAGUGCAUCUCUUGGGAUGGGCUUCUCUCGGAGUGUAAAAGCAAGGGGCCAGGAUUGUGCUGGCAGCCAGGGAGACAGUAGUGCCUGCGGAAGUUGGCAGAUGGAAUUCUCGGGUGCCAA`: “RBNS enrichment (R)” 0.532.
`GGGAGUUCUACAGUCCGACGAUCCACCCUGCCUGAUGAGCCCUUCACUUUGUCCUCUUCCUGCCUCCUGGGCUCUGCCUUAAUCUCCUGGACUCCGGAGGACUGAGCCCCCACCGGAGCUGGCUGGGGCUUGGUGGAAUUCUCGGGUGCCAA` — result for “RBNS enrichment (R)”: 0.885.

Series 3 — method: DHFR PCA, deep sequencing; medium: yeast; with: (+)-ABA 2500 µM; relative to: wild-type fitted maximum; reading: higher = stronger binding
Target: ABI1, truncated, D143A, DHFR fusion (Arabidopsis thaliana)
Setting: methotrexate growth selection, single substitutions
Starting sequence: PYL1, truncated, DHFR fusion (Arabidopsis thaliana); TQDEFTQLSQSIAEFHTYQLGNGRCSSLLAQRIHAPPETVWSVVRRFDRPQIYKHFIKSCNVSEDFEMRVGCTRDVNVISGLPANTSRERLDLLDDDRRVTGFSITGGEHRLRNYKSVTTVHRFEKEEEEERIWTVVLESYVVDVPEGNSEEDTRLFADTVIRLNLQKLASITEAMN; partner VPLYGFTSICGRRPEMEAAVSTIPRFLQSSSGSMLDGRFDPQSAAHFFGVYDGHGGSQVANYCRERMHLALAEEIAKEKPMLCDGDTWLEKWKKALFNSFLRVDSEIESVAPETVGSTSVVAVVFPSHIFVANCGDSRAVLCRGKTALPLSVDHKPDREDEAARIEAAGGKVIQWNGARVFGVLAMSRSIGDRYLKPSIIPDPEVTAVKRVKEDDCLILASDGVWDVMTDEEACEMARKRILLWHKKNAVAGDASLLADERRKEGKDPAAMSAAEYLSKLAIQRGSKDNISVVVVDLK
`F124E` — result for “relative binding score”: 104%.
`D96Y` — result for “relative binding score”: 75%.
`T86N`: “relative binding score” 99.7%.
Under “relative binding score”, `I33N` is recorded as -8.98%.
`P50V` — result for “relative binding score”: 79.8%.
For `E127T`, “relative binding score” read 101%.
`H122A`: “relative binding score” 83.8%.
Under “relative binding score”, `S26G` is recorded as 96.7%.
`L93F` — result for “relative binding score”: 109%.
`H16N` — result for “relative binding score”: 39.6%.
`V142A`: “relative binding score” 94%.
For `T120G`, “relative binding score” read 69.4%.
`I57F` — result for “relative binding score”: 66.8%.
`L20N` — result for “relative binding score”: 101%.
`T1M`: “relative binding score” 93.9%.
Under “relative binding score”, `C25I` is recorded as 93%.
For `S150C`, “relative binding score” read 97.6%.
`A30F`: “relative binding score” 105%.
`V136Q` — result for “relative binding score”: 94.9%.
`L93D`: “relative binding score” 84.9%.
For `L28I`, “relative binding score” read 91.4%.
`Y18A`: “relative binding score” 91.8%.
`E151H`: “relative binding score” 99.8%.
`L112Y`: “relative binding score” 71.7%.
`M176N`: “relative binding score” 95.7%.

Series 4 — target: ATF5, bZIP domain (human); method: DHFR protein complementation; medium: yeast; relative to: wild-type JUN-FOS pair; reading: higher = stronger binding
Setting: single substitutions, most at no-binding floor
Starting sequence: JUN, bZIP domain (human); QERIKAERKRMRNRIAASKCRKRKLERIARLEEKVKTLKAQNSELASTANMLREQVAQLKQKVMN; partner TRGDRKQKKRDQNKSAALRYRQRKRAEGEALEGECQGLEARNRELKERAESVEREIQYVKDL
`T48K` has a binding fitness of -1.35 natural log.
The binding fitness of `A57E` is reported as -1.51 natural log.
For `T37G`, the binding fitness was -1.31 natural log.
With `E54D` the binding fitness was -1.1 natural log.
`L52W` gave a binding fitness of -1.49 natural log.
With `A49S` the binding fitness was -1.41 natural log.
For `T37D`, the binding fitness was -1.48 natural log.
`N42V` has a binding fitness of -1.4 natural log.
`L31G` has a binding fitness of -1.51 natural log.
For `N42K`, the binding fitness was -1.45 natural log.
The binding fitness of `E33F` is reported as -1.42 natural log.
`Q41L` has a binding fitness of -1.58 natural log.
With `A29R` the binding fitness was -1.47 natural log.
For `T48C`, the binding fitness was -1.42 natural log.
For `Q41S`, the binding fitness was -1.6 natural log.
`I28W` gave a binding fitness of -1.23 natural log.
`V35R` has a binding fitness of -1.43 natural log.
`A40V` has a binding fitness of -1.41 natural log.
The binding fitness of `A29W` is reported as -1.5 natural log.
For `R30P`, the binding fitness was -1.53 natural log.
The binding fitness of `N42F` is reported as -1.54 natural log.
`R30N` has a binding fitness of -1.53 natural log.

Repeated from above (series 1):
`PSAIRNLFGPVDH [C4I]`: “normalised enrichment score” 1.51.
`PSACANAFGPVDH [R5A L7A]` — result for “normalised enrichment score”: -0.193.
`PSACRNLFGQVDH [P10Q]` — result for “normalised enrichment score”: 2.96.
Under “normalised enrichment score”, `PSACRNLKGPVDH [F8K]` is recorded as 0.188.
`ASACRNLFGPVDH [P1A]` — result for “normalised enrichment score”: 3.76.
`PSACRNLFQPVDH [G9Q]` — result for “normalised enrichment score”: 1.5.
For `PSAARNLFGPVDH [C4A]`, “normalised enrichment score” read 1.47.
